{"data": "Assay results pooled from the literature", "note": "Each numbered part is a random draw from the data of one study; scales do not carry over between parts. Substitutions count along the parent as printed."}
{"data": "Block 1", "target": "TAR DNA-binding protein 43, full length, His tag (TARDBP, Homo sapiens, UniProt Q13148, residues 1-414)", "method": "RNA Bind-n-Seq", "form": "RNA", "matrix": "in vitro", "concentration": "20 nM", "setting": "6-mer, flanks averaged, single round", "with": "150 mM KCl", "relative to": "input library", "reading": "higher = stronger binding"}
{"Sequence": "CAUUAC", "6-mer enrichment (R)": 0.563}
{"Sequence": "CGCAUU", "6-mer enrichment (R)": 0.618}
{"Sequence": "UGGGUC", "6-mer enrichment (R)": 1.73}
{"Sequence": "UCUUGC", "6-mer enrichment (R)": 0.611}
{"Sequence": "AUUCGC", "6-mer enrichment (R)": 0.588}
{"data": "Block 2", "target": "Ras GTPase-activating protein-binding protein 1, full length (G3BP1, Homo sapiens, UniProt Q13283)", "method": "RNA Bind-n-Seq", "form": "RNA", "matrix": "in vitro", "concentration": "200 nM", "setting": "whole 134-nt RNA, ends assumed", "with": "150 mM LiCl", "relative to": "input library", "reading": "higher = stronger binding", "library": "7-deaza-guanosine replaces G", "sequence of UniProt Q13283 (whole entry, looked up)": "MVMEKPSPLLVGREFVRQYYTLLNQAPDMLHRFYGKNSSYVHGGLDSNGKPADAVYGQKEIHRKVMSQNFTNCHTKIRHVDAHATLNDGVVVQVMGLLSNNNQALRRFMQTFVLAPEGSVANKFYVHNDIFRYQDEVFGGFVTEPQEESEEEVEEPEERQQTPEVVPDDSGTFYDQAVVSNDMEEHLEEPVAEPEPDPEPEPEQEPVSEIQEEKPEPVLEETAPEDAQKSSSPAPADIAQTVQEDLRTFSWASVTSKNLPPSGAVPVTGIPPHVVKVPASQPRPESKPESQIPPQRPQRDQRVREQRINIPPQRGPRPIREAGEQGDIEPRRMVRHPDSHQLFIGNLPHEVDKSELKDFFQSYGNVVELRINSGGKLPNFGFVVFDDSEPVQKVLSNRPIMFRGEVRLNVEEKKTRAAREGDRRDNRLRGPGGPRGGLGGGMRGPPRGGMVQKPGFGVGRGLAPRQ"}
{"Sequence": "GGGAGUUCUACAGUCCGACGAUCUGGCCUGCACAUUCAGCUGCAUGAUGAAGUUCACUGUCAAGGACUGUGAUCCCACCACUGGGGAGACUGAUGACGAAGGCUAUGAGGAUGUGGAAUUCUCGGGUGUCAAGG", "log2 enrichment": -2.8}
{"Sequence": "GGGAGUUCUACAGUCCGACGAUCCUGUGCUACACAUCGUAUGUACCGAAUCGGGGUUUUUGGGGAAAAAGGGGUUUUUUUGGGGAAAGUAUUAUGUUACGCCGUUCGGAUCUGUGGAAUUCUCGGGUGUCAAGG", "log2 enrichment": -0.379}
{"Sequence": "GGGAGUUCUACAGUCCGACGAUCACCAUGCAGGUGGGCAUCUUUGGGAAGUGGGGCAAAAAGGGGAUAGGGAGGGGGGUAACACUUUGGGAACAGGUGGUCCCAGGUCGUUUCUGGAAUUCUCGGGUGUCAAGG", "log2 enrichment": 0.539}
{"Sequence": "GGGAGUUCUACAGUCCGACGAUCAGUCCUGUGCUACACAUCGUAUGUACCGAAUCGGGAAAAAAAGGGAAAGGGAAAGGGAAAGUAUUAUGUUACGCCGUUCGGAUCUGCACUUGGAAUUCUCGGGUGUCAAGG", "log2 enrichment": -0.742}
{"Sequence": "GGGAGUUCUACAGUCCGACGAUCCACAGACAACACGCACCCACACAGACACAGAGGGAAGGGGUUGGGAUAAAGACAGGGUGCACAGCAGGGCGGGGUAGGACCCCAGCCCCUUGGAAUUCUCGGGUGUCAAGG", "log2 enrichment": 0.435}
{"Sequence": "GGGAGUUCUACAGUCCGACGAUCGCAGGAAGUAAAAACAAAUGGAAAUCCUUCGGAUAGUGGCAGGGGUGGGGGUUGCUAAGGAAAGGGUGGGAUGGGAGUGGGUAAAGAGUUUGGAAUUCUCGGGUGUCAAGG", "log2 enrichment": 0.125}
{"Sequence": "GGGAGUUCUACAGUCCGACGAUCAGUCCUGUGCUACACAUCGUAUGUACCGAAUCGGAAAAAGGAAAAAAAGGAAAAAGGAAAGUAUUAUGUUACGCCGUUCGGAUCUGCACUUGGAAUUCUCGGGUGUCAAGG", "log2 enrichment": -1.43}
{"Sequence": "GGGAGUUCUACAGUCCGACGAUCGCAGGAAGUAAAAACAAAUGGAAAUGCUUCGGAUAGUUGCAGGGGUGGGGGUUGCUAAGGAAAGGGUGGGAUGGGAGUGGGUAAAGAGUUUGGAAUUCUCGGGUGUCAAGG", "log2 enrichment": 0.184}
{"data": "Block 3", "target": "CCNF, cyclin fold, Cln2 fusion (human)", "method": "yeast growth competition, sequencing", "matrix": "yeast", "setting": "strong parent motif", "relative to": "not given", "reading": "higher = stronger binding", "parent": "WEE1 docking peptide (human); HKTFRKLRLFDTP"}
{"Substitution": "HKTCRKLRLFDTP [F4C]", "normalised enrichment score": 6.9}
{"Substitution": "HKTFRKLRLFDMP [T12M]", "normalised enrichment score": 2.7}
{"Substitution": "FKTFRKLRLFDTP [H1F]", "normalised enrichment score": 1.56}
{"Substitution": "HKTFRKLRLFHTP [D11H]", "normalised enrichment score": 0.642}
{"Substitution": "HKTFRPLRLFDTP [K6P]", "normalised enrichment score": 2.67}
{"Substitution": "HKTFRKLRNFDTP [L9N]", "normalised enrichment score": 1.22}
{"data": "Single results of other studies"}
{"Molecule": "PhoQ, residues 284 288 289 292 302 303 AEGLLW", "target": "PhoP, residues 12 14 15 18 19 GHCSL (Escherichia coli, UniProt P23836)", "assay": "Sort-seq, measured: YFP reporter", "test system": "E. coli", "conditions": "PhoQ-PhoP variant library, with: 10 µM Mg2+", "how to read": "relative to: high Mg2+ state, higher = stronger signaling", "endpoint": "fold induction", "value": 3.77}
{"note": "A few entries again (block 3):"}
{"Substitution": "HKTFRKLRLFDMP [T12M]", "normalised enrichment score": 2.7}
{"Substitution": "HKTFRKLRNFDTP [L9N]", "normalised enrichment score": 1.22}
